Results from different studies.
Each line is one published result; not all experiments were run side by side.
Organism: Enterococcus faecalis

CCCCCCCNC(=O)CP(=O)(O)O
MIC (ATCC 33186): > 200 µg/mL

CCCCCCCC(=O)N[C@@H](CCCNC(=N)N)C(=O)N[C@@H](CCCNC(=N)N)C(=O)N[C@@H](CCCNC(=N)N)C(=O)N[C@@H](CCCNC(=N)N)C(=O)N[C@H](C(=O)N[C@@H](CC(C)C)C(=O)N[C@H](C(=O)N[C@@H](CCCCN)C(=O)N[C@@H](CCCCN)C(=O)N[C@H](C(=O)N[C@@H](CC(C)C)C(=O)N[C@@H](CCCCN)C(=O)N[C@@H](CC(C)C)C(=O)N[C@@H](CCCCN)C(=O)N[C@@H](CO)C(=O)N[C@@H](CO)C(=O)N[C@@H](C)C(=O)N[C@@H](Cc1ccc(O)cc1)C(N)=O)C(C)C)[C@@H](C)CC)[C@@H](C)CC
MIC (broth microdilution; ATCC 29212; highest value reported): 64 µM

CC[C@H](C)[C@H](N)C(=O)N[C@@H](CCCNC(=N)N)C(=O)N[C@H](C(=O)N[C@@H](Cc1c[nH]c2ccccc12)C(=O)N[C@@H](Cc1c[nH]c2ccccc12)C(=O)N[C@@H](CCCCN)C(=O)N[C@H](C(=O)N[C@H](C(=O)N[C@@H](CCCNC(=N)N)C(=O)N[C@@H](CCCCN)C(=O)N[C@@H](Cc1c[nH]c2ccccc12)C(=O)N[C@@H](CCCCN)C(=O)N[C@@H](C)C(=O)N[C@H](C(=O)N[C@@H](Cc1c[nH]c2ccccc12)C(=O)N[C@@H](Cc1c[nH]cn1)C(N)=O)[C@@H](C)CC)C(C)C)[C@@H](C)CC)C(C)C
MIC (broth dilution; KCTC 3511): 12.5 µM

CN(C)[C@@H]1C(O)=C(C(N)=O)C(=O)[C@@]2(O)C(O)=C3C(=O)c4c(O)cnc(Cl)c4C[C@H]3C[C@@H]12.Cl
MIC (tet(M)-carrying): > 32 µg/mL

Cc1ccc2[nH]c3c(c2c1)CCCC3NCCc1ccc(O)cc1 (stereo not shown)
MIC (broth microdilution; JH2-2): 16 µg/mL

COc1ncc(O)c2c1C[C@H]1C[C@H]3[C@H](N(C)C)C(O)=C(C(N)=O)C(=O)[C@@]3(O)C(O)=C1C2=O.Cl.Cl
MIC (tet(M)-carrying): > 32 µg/mL

CC(C)C[C@@H](NC(=O)[C@H](C)NC(=O)CNC(=O)[C@@H](NC=O)C(C)C)C(=O)N[C@@H](C)C(=O)N[C@@H](C(=O)N[C@H](C(=O)N[C@@H](C(=O)N[C@@H](Cc1c[nH]c2ccccc12)C(=O)N[C@H](CC(C)C)C(=O)N[C@@H](Cc1cccc2cc[nH]c12)C(=O)N[C@H](CC(C)C)C(=O)N[C@@H](Cc1c[nH]c2ccccc12)C(=O)N[C@H](CC(C)C)C(=O)N[C@@H](Cc1c[nH]c2ccccc12)C(=O)NCCO)C(C)C)C(C)C)C(C)C
MIC (broth microdilution; JCM 5803): 4.3 µM

CC[C@H](C)[C@H](NC(=O)[C@H](CC(C)C)NC(=O)[C@H](CCCCN)NC(=O)[C@H](CC(C)C)NC(=O)CNC(=O)[C@@H](NC(=O)[C@H](CO)NC(=O)[C@@H](NC(=O)[C@@H](NC(=O)[C@H](CCC(N)=O)NC(=O)[C@H](Cc1c[nH]c2ccccc12)NC(=O)[C@H](CCCNC(=N)N)NC(=O)[C@H](CC(N)=O)NC(=O)[C@H](CCCNC(=N)N)NC(=O)[C@H](CCCNC(=N)N)NC(=O)[C@@H](NC(=O)[C@H](Cc1ccccc1)NC(=O)[C@H](CCCNC(=N)N)NC(=O)CNC(=O)[C@H](C)NC(=O)[C@H](CCCNC(=N)N)NC(=O)[C@H](CCCNC(=N)N)NC(=O)[C@H](CCCCN)NC(=O)[C@H](Cc1ccccc1)NC(=O)[C@H](CCCNC(=N)N)NC(=O)CNC(=O)[C@H](Cc1c[nH]c2ccccc12)NC(=O)[C@H](CCCNC(=N)N)NC(=O)CNC(=O)[C@H](CCCNC(=N)N)NC(=O)[C@@H](N)[C@@H](C)O)[C@@H](C)CC)[C@@H](C)CC)[C@@H](C)CC)[C@@H](C)O)C(=O)NCC(=O)O
MIC (ATCC 29212; highest concentration 50 µM): 4.79 µM

CC[C@H](C)[C@H](NC(=O)[C@@H](NC(=O)[C@H](Cc1ccccc1)NC(=O)CNC(=O)[C@H](CCC(N)=O)NC(=O)[C@H](CCCCN)NC(=O)[C@H](C)N)C(C)C)C(=O)N[C@@H](Cc1ccc(O)cc1)C(=O)N[C@@H](CCCNC(=N)N)C(=O)N[C@H](C(=O)N[C@@H](CCCNC(=N)N)C(=O)N[C@H](C(=O)N[C@@H](CCCNC(=N)N)C(=O)N[C@@H](CCCNC(=N)N)C(=O)NCC(=O)N[C@@H](CC(N)=O)C(=O)N[C@@H](CCCNC(=N)N)C(=O)N[C@@H](CCCCN)C(N)=O)C(C)C)C(C)C
MIC (broth dilution; KCTC 3511): > 100 µM

CC(C)C[C@@H](NC(=O)[C@H](C)NC(=O)CNC(=O)[C@@H](NC=O)C(C)C)C(=O)N[C@@H](C)C(=O)N[C@@H](C(=O)N[C@H](C(=O)N[C@@H](C(=O)N[C@@H](Cc1c[nH]c2ccccc12)C(=O)N[C@H](CC(C)C)C(=O)N[C@@H](Cc1ccc2cc[nH]c2c1)C(=O)N[C@H](CC(C)C)C(=O)N[C@@H](Cc1c[nH]c2ccccc12)C(=O)N[C@H](CC(C)C)C(=O)N[C@@H](Cc1c[nH]c2ccccc12)C(=O)NCCO)C(C)C)C(C)C)C(C)C
MIC (broth microdilution; JCM 5803): 0.13 µM

CN[C@H](CC(C)C)C(=O)N[C@H]1C(=O)N[C@@H](CC(N)=O)C(=O)N[C@H]2C(=O)N[C@H]3C(=O)N[C@H](C(=O)N[C@H](C(=O)O)c4cc(O)cc(O)c4-c4cc3ccc4O)[C@H](O)c3ccc(c(Cl)c3)Oc3cc2cc(c3O[C@@H]2O[C@H](CO)[C@@H](O)[C@H](O)[C@H]2O[C@H]2C[C@](C)(N)[C@H](O)[C@H](C)O2)Oc2ccc(cc2Cl)[C@H]1O
MIC (broth microdilution; vancomycin-resistant): 22 µM

CCCNc1nc(N(C)C)c2c(c1O)C(=O)C1=C(O)[C@]3(O)C(=O)C(C(N)=O)=C(O)[C@@H](N(C)C)[C@@H]3C[C@@H]1C2.Cl.Cl
MIC (tet(M)-carrying): > 32 µg/mL

CC[C@H](C)[C@H](N)C(=O)N[C@@H](CO)C(=O)N[C@@H](Cc1ccccc1)C(=O)N[C@@H](CC(C)C)C(=O)NCC(=O)N[C@@H](CO)C(=O)N[C@@H](CCCCN)C(=O)N[C@H](C(=O)N[C@H](C(=O)N[C@H](C(=O)N[C@@H](CC(C)C)C(=O)N[C@@H](CC(C)C)C(=O)N[C@@H](CCCCN)C(=O)N[C@@H](CCCNC(=N)N)C(=O)N[C@@H](CCCNC(=N)N)C(=O)N[C@@H](CCCCN)C(=O)N[C@@H](CCCNC(=N)N)C(=O)N[C@@H](CCCCN)C(=O)N[C@@H](CCCNC(=N)N)C(=O)N[C@@H](CCCCN)C(N)=O)C(C)C)C(C)C)C(C)C
MIC (broth microdilution; ATCC 29212; highest value reported): 8 µM

CN1C(=O)Cc2ccc(F)c(CCNCC[C@H]3CN(c4ccc5c(n4)NC(=O)CO5)C(=O)O3)c21
MIC (ATCC 29212): 0.25 µg/mL

CN[C@H](CC(C)C)C(=O)N[C@H]1C(=O)N[C@@H](CC(N)=O)C(=O)N[C@H]2C(=O)NC3C(=O)N[C@H](C(=O)N[C@H](C(=O)NCCC[N+](C)(C)C)c4cc(O)cc(O)c4-c4cc3ccc4O)[C@H](O)c3ccc(c(Cl)c3)Oc3cc2cc(c3OC2OC(CO)C(O)[C@H](O)[C@@H]2O[C@H]2CC(C)(NCc3ccc(-c4ccc(Cl)cc4)cc3)[C@H](O)[C@H](C)O2)Oc2ccc(cc2Cl)[C@H]1O (stereo partly shown)
MIC (BM4166, VanA vancomycin-resistant; added: lipoteichoic acid 100 µg/mL): 20 µg/mL

CC[C@H](C)[C@H](NC(=O)[C@H](CC(C)C)NC(=O)[C@@H](NC(=O)[C@H](CCCNC(=N)N)NC(=O)[C@H](CCCNC(=N)N)NC(=O)[C@H](CCCNC(=N)N)NC(=O)[C@@H](N)CCCNC(=N)N)[C@@H](C)CC)C(=O)N[C@@H](CCCNC(=N)N)C(=O)N[C@@H](CCCNC(=N)N)C(=O)N[C@H](C(=O)N[C@@H](CC(C)C)C(=O)N[C@@H](CCCNC(=N)N)C(=O)N[C@@H](CC(C)C)C(=O)N[C@@H](CCCNC(=N)N)C(=O)N[C@@H](CO)C(=O)N[C@@H](CO)C(=O)N[C@@H](C)C(=O)N[C@@H](Cc1ccc(O)cc1)C(N)=O)C(C)C
MIC (broth microdilution; ATCC 29212; highest value reported): 8 µM

CN(C)CCCNc1nc(Cl)c2c(c1O)C(=O)C1=C(O)[C@]3(O)C(=O)C(C(N)=O)=C(O)[C@@H](N(C)C)[C@@H]3C[C@@H]1C2.Cl
MIC (tet(M)-carrying): 32 µg/mL

CCCCCCCCCCCCCCCC(=O)NS(=O)(=O)OCCCC
MIC (ATCC 33186): > 200 µg/mL

CNc1nc(Cl)c2c(c1O)C(=O)C1=C(O)[C@]3(O)C(=O)C(C(N)=O)=C(O)[C@@H](N(C)C)[C@@H]3C[C@@H]1C2.Cl.Cl.Cl
MIC (tet(M)-carrying): 8 µg/mL

CN1C(=O)Cc2ccc(F)c(CCNC[C@H]3CN(c4ccc5c(n4)NC(=O)CO5)C(=O)O3)c21
MIC (ATCC 29212): 0.125 µg/mL

CN(C)[C@@H]1C(O)=C(C(N)=O)C(=O)[C@@]2(O)C(O)=C3C(=O)c4c(O)cnc(-c5ccccc5)c4C[C@H]3C[C@@H]12.Cl.Cl
MIC (tet(M)-carrying): > 32 µg/mL

CN[C@H](CC(C)C)C(=O)N[C@H]1C(=O)N[C@@H](CC(N)=O)C(=O)N[C@H]2C(=O)N[C@H]3C(=O)N[C@H](C(=O)N[C@H](C(=O)O)c4cc(O)cc(O)c4-c4cc3ccc4O)[C@H](O)c3ccc(c(Cl)c3)Oc3cc2cc(c3O[C@@H]2O[C@H](CO)[C@@H](O)[C@H](O)[C@H]2O[C@H]2C[C@](C)(N)[C@H](O)[C@H](C)O2)Oc2ccc(cc2Cl)[C@H]1O
MIC (vancomycin-susceptible): 2 µg/mL
